Experimental data from different studies.
Each numbered part is a random draw from the data of one study; scales do not carry over between parts.

Series 1
Target: Replicase polyprotein 1ab, nsp13 helicase (rep, Severe acute respiratory syndrome coronavirus 2, UniProt P0DTD1)
Mode: inhibitor
Tested at: 20 µM
Measurement: inhibition
OCCCNc1ccccc1: -0.53%
CC(C)(C)c1cc(C(C)(C)C)c2c(c1)C(O)(C(F)(F)F)C(=O)O2 (racemic): 1.72%
CN(C)CCC(c1ccc(Cl)cc1)c1ccccn1 (stereo not drawn): 7.86%
O=C(NCc1ccc2c(c1)OCO2)c1c(Cl)cccc1Cl: 0.2%
CN1CC[C@@H](NC(=O)Nc2ccc(C#N)cc2)C[C@@H]1c1nc2ccccc2[nH]1: 1.42%
CCCN(CCc1cccs1)[C@H]1CCc2c(O)cccc2C1: 5.69%
COc1c(O)cc2c(c1O)[C@@H]1O[C@H](CO)[C@@H](O)[C@H](O)[C@H]1OC2=O: -25.8%
CCN(CC)C(=S)S: 72.1%
COc1ccc2cc3[n+](cc2c1OC)CCc1cc2c(cc1-3)OCO2: -14.3%
Cc1ccccc1N(C)C(=O)c1ccc([S+]([O-])c2nccs2)c([N+](=O)[O-])c1 (stereo not drawn): 42%
CC(C)c1cccc2c(-c3ccccc3)cc(-c3ccc(-c4ccc(C(=O)O)cc4)[nH]3)nc12: 11.2%
O=C1NC(=O)/C(=C/c2ccc3c(c2)OC(F)(F)O3)S1: 2.48%
CC(C)(Oc1ccc(C(=O)c2ccc(Cl)cc2)cc1)C(=O)O: 5.21%
O=C(O)[C@H](O)[C@@H](O)[C@H](O[C@@H]1O[C@H](CO)[C@H](O)[C@H](O)[C@H]1O)[C@H](O)CO: -5.15%
Cc1coc2c1C(=O)C(=O)c1c-2ccc2c(C)cccc12: 9.95%
CCc1nc2c(C)nc(C)cc2n1-c1ccc(CCNC(=O)NS(=O)(=O)c2ccc(C)cc2)cc1: -3.16%
C[C@@H]1CN(Cc2ncccn2)C[C@H]1c1nc2c(cnn2C2CCOCC2)c(=O)[nH]1: 4.65%
CN1CCC2=C(C1)c1ccccc1Cc1ccccc12: 6.11%
CCCCN(CC)c1nc(C)nc2c1c(C)c(C)n2-c1c(C)cc(C)cc1C: -3.32%
Cc1cc(Nc2ncc(Cl)c(Nc3ccccc3S(=O)(=O)C(C)C)n2)c(OC(C)C)cc1C1CCNCC1: 6.94%
O=C(Cn1c(=O)sc2ccc(Cl)cc21)N1CCN(CCO)CC1: 3.41%
Cc1cccc(Oc2nc3c(C)cccn3c(=O)c2/C=C(\C#N)c2nc3ccccc3s2)c1: 6.59%
CC[N+](CC)(CC)CCOc1ccc(/C=C/c2ccccc2)cc1: 2.76%
N=C(N)SCCc1ccc(OCc2ccc([N+](=O)[O-])cc2)cc1: 9.76%
C[C@H]1CO[C@@H]2Cn3cc(C(=O)NCc4ccc(F)cc4F)c(=O)c(O)c3C(=O)N12: 4.38%

Series 2
Target: Replicase polyprotein 1ab, main protease (rep, Severe acute respiratory syndrome coronavirus 2, UniProt P0DTD1)
Observed: enzyme activity
Mode: inhibitor
Tested at: 20 µM
Notes: hit confirmation
Measurement: inhibition
COC(=O)C1=C(C)NC(C)=C(C(=O)O[C@H]2CCN(Cc3ccccc3)C2)[C@H]1c1cccc([N+](=O)[O-])c1: -5.1%
Nc1nc(Nc2ccc3c(c2)CC[C@@H](N2CCCC2)CC3)nn1-c1cc2c(nn1)-c1ccccc1CCC2: -21.2%
Nc1ncc2c(n1)CC(c1ccco1)CC2=O (stereo not drawn): 32.2%
CCOC(=O)Nc1ccc(NCc2ccc(F)cc2)nc1N: 43.2%

Series 3
Cell line: HEK-293T/ACE2
Tested at: 10 µM
Time: 16 h
Relative to: vehicle
Measurement: viability
CC12CC3CC(C)(C1)CC(N)(C3)C2: 102%
C[N+](C)(C)CCCCCCCCCC[N+](C)(C)C: 100%
O=c1[nH]c(=O)n([C@H]2C[C@H](O)[C@@H](CO)O2)cc1I: 96.5%
C[C@H](CCC(=O)O)[C@H]1CC[C@H]2[C@@H]3[C@@H](O)C[C@@H]4C[C@H](O)CC[C@]4(C)[C@H]3CC[C@]12C: 100%

Series 4
Target: RING finger protein unkempt homolog, zinc fingers 1-6, GST-SBP tag (UNK, Homo sapiens, UniProt Q9C0B0, residues 30-357)
Chain of UniProt Q9C0B0 (30-357, looked up): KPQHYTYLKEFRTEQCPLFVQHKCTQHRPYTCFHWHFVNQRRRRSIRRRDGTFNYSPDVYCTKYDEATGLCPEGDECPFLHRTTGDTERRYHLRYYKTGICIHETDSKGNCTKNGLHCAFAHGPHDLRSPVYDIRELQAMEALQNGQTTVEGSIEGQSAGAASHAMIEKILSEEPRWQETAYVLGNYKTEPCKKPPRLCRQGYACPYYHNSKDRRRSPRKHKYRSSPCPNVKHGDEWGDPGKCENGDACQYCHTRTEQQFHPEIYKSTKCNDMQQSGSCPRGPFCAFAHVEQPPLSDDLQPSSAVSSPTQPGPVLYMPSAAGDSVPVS
Technique: RNA Bind-n-Seq
Molecule type: RNA
Matrix: in vitro
Tested at: not given
Notes: RNA with constant flanks, human-mouse chimeric sites, ends assumed
Relative to: input RNA pool
Reading: higher = stronger binding
Measurement: bound/input enrichment
All sequences stand within: GGGAGUUCUACAGUCCGACGAUC … CAACAGAGGAUUGAGCAUCA
AAAGCCCAAGUAUUUUGAAAAAAUUCAAACAGAUUUGUCAAGGGUAACCAGCUUGGAGUCUAGCAACUUGCCAAUGUGUUUACCAAUCUGGGGGCUUGUUUUUCUUUUCUUCUUUCAAAU: 0.397 ratio
UCCCAAAUCCAGCAGCUAGAAGGAGCCAAUUGUUUGUCACUCCACACACAGGGAAGGCGAUAACAUUGUACAUUGGUUUACAUUUUUUCCCCCUGUGGAUUUUUCUAUCCUAGUGCUUGC: 0.421 ratio
UCAGGAACCCAGACAAACAUGAAUGUAAAUGAAGUCAUUAGCAACAGAGCAAUUGAAAUGUUAGGAGGUGAACUUGGCAGCAAGAUACCUGUGCAUCCCAAUGAUCAUGUUAACAAAAGC: 0.356 ratio
GAUGAUAAUCACACAAACAAGUCACUGUUACAUGACCAGCCUUGGGAUUCUUCUCCUGAUUAGUAUUCUCCCUGGAACCACUGGUCAAGGGGAAUCAAGACGACAAGAACCCGGGGACUU: 0.203 ratio
GAUAAGAAAAGCUUGUUGGAGACCCGCUUGCACAUCACUGGUAGAGACCUGAGGUGUCAAAUAGCUGAAACUUUCGGAUUUCAAGAAAAUUACAUCAAGAUCGUAAUAAAUAAGAAGCAG: 0.473 ratio
UAACCACAUCAAGAUGGUUGGGAAGCUGAAGCAGAACUUACUCUUGGCAUGUCUGGUGAUUAGUUCUGUGACCGUGUUUUACCUGGGCCAGCAUGCCAUGGAGUGCCAUCACCGGAUAGA: 0.219 ratio
AAAGUGAUGACUAUGUUUGUCCAACGACAGGUAUUUUCGGAGAGCAAGGAUGAGAUUGCGUUAGUCCUCUAUGGCACAGAUGGCACUGACAAUCCCCUUGCUGGCAAGGACCAGUAUCAG: 0.162 ratio
GUGACAGGUGUUAAGAUUUCCCCUCAGCAAAGAAGUGCAGUAGUCACCAUAAUUCCAUCUGUGGUGAGUGCCAGUCAGAUUGUGGAGCUGGUUCCAGACCUCAGUUUAGACAUGGGAACU: 0.212 ratio

Series 5
Target: Interferon regulatory factor 7, full length, phosphomimetic (IRF7, Homo sapiens, UniProt Q92985, residues 1-503, S471D/S472D/S475D/S476D/S477D/S483D/S484D/S487D)
Technique: protein-binding microarray
Molecule type: double-stranded DNA, one strand shown
Matrix: in vitro
Tested at: 2200 nM top
Notes: 60-bp whole probe
Added: salmon DNA 0.4 mg/ml
Relative to: random background probes
Reading: higher = stronger binding
Measurement: fitted relative affinity
All sequences stand within: GCCTAGCAC … GTCTTGATTCGCTTGACGCTGCTG
Residues (chain): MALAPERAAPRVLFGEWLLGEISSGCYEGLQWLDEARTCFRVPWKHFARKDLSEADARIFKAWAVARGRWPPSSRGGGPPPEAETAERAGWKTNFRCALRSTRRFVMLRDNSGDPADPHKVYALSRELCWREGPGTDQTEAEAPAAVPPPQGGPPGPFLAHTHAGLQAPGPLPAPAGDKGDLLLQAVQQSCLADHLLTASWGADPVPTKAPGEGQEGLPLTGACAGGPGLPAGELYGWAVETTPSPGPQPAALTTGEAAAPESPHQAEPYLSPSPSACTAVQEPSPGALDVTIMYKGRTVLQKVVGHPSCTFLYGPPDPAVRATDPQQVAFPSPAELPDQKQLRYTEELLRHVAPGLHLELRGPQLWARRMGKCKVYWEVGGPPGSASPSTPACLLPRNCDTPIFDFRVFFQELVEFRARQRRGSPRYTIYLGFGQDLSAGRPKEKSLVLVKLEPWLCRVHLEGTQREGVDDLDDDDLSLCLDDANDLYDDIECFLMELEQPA
ATATATATATATACAGATATGTGCTAG: 0.846 z-score
GACGATTTCGGGACTGGATACGTGCTA: 1.28 z-score
GACGGTACCCTTCTCCTGACGTGCTAG: 0.574 z-score
TTAGGTATCGACTTTCGATTAGTGCTA: 4.51 z-score
GACGGTTTCCTTTCCCGGACGTGCTAG: 4.55 z-score
GACGGTCTCCTTCTCCCGACGTGCTAG: 1.05 z-score
GACGGTATCGGGACAGGGGACGTGCTA: -0.35 z-score
GACGATATCAGTATCTAGACGTGCTAG: 0.292 z-score

Series 6
Target: Histone acetyltransferase KAT6A, winged helix 1, GST fusion (KAT6A, Homo sapiens, UniProt Q92794, residues 1-85)
Technique: protein binding microarray
Molecule type: double-stranded DNA, one strand shown
Matrix: in vitro
Tested at: not given
Notes: 8-mer, flanks averaged, mean of 2 arrays, mostly near background
Relative to: not given
Reading: higher = stronger binding
Measurement: E-score
Target sequence (chain): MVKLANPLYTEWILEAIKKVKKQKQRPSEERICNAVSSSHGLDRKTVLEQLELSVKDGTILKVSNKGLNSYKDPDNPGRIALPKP
GCACTGTA: 0.00451
AACTAGTT: -0.149
CGCAATAC: 0.2
TAATGCAA: -0.262
CACTATTA: -0.0815
CCAAACGA: -0.04
CCCAACCG: -0.00989
GCCTACTA: -0.155

A few entries again (series 3):
CC12CC3CC(C)(C1)CC(N)(C3)C2: 102%
C[N+](C)(C)CCCCCCCCCC[N+](C)(C)C: 100%
O=c1[nH]c(=O)n([C@H]2C[C@H](O)[C@@H](CO)O2)cc1I: 96.5%
C[C@H](CCC(=O)O)[C@H]1CC[C@H]2[C@@H]3[C@@H](O)C[C@@H]4C[C@H](O)CC[C@]4(C)[C@H]3CC[C@]12C: 100%
